# Experimental data gathered from unrelated publications.
# Each numbered part is a random draw from the data of one study; scales do not carry over between parts.

# Series 1 — technique: RNAcompete; molecule type: RNA; medium: in vitro; concentration: 20 nM; setting: 7-mer, probes averaged, single round; relative to: mean of 7-mers; direction: higher = stronger binding
# Target: PABPC1L2, full length, GST fusion (mouse, UniProt A0ABA7IW68)
# Construct (chain): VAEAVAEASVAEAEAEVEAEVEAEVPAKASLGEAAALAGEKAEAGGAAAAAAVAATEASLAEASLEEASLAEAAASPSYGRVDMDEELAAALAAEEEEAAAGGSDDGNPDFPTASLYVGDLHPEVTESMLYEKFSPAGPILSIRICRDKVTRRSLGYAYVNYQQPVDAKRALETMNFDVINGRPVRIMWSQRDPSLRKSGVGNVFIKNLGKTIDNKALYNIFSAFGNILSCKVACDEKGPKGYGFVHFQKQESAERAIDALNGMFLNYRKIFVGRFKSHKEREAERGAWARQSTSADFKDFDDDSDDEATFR
Strand,7-mer Z-score
GUGGAAG,-0.0482
UGAACAA,0.512
UGAUAUC,-0.161
UUUGGAG,-0.0573
CCGAGAG,-0.151
GGGCGGU,0.401

# Series 2 — technique: protein-binding microarray; molecule type: double-stranded DNA, one strand shown; medium: in vitro; concentration: 940 nM top; setting: 60-bp whole probe; added: salmon DNA 0.4 mg/ml; relative to: random background probes; direction: higher = stronger binding; constant ends, left off below: GCCTAGCAC … GTCTTGATTCGCTTGACGCTGCTG
# Target: Interferon regulatory factor 5, full length, phosphomimetic (IRF5, Homo sapiens, UniProt Q13568-2, residues 1-514, S451D/S453D/S456D/S462D)
Strand,fitted relative affinity [z-score]
GACGATATCGGGTTTCGAGAGGTGCTA,2.02
GACGGACTGGGTCTTGGGACGTGCTAG,-0.566
GACGGTTTCGGGTATCGGGACGTGCTA,9.9
TTAGATCTCAGTCCCGATTAGTGCTAG,0.327
TAAGGTATCCTTCTCCTTTAGTGCTAG,0.271
GAATCTCCCATTATATTTTAGTGCTAG,1.01

# Series 3 — technique: protein binding microarray; molecule type: double-stranded DNA, one strand shown; medium: in vitro; concentration: not given; relative to: not given; direction: higher = stronger binding
# Target: Histone acetyltransferase KAT6A, winged helix 1, GST fusion (KAT6A, Homo sapiens, UniProt Q92794, residues 1-85)
# Setting: 8-mer, flanks averaged, mean of 2 arrays, mostly near background
# Residues (chain): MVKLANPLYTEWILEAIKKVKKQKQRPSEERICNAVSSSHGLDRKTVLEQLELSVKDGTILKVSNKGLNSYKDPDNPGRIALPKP
Strand,E-score
CATTTGTA,-0.211
CACTGAAG,0.00749
AGAGAGAC,-0.163
ATAATATC,0.0313
ATGATAGC,0.115

# Single results of other studies
Molecule,target,test,system,setting,scale,quantity,value
"PhoQ, residues 284 288 289 292 302 303 TYGVAM","PhoP, residues 12 14 15 18 19 AWHSL (Escherichia coli, UniProt P23836)","Sort-seq, measured: YFP reporter",E. coli,"PhoQ-PhoP variant library, added: 10 µM Mg2+","relative to: high Mg2+ state, higher = stronger signaling",fold induction,4.48

# For quick reference, copied from above (series 1):
Strand,7-mer Z-score
GUGGAAG,-0.0482
UUUGGAG,-0.0573
